Assay results from different studies.
A part holds a random share of what one study measured. Positions count from the first letter of the parent shown.

Set 1 — method: protein-binding microarray; form: hairpin DNA; medium: in vitro; tested at: not given; reference: not given; direction: higher = stronger binding
Target: Runt-related transcription factor 3, Runt domain (RUNX3, Homo sapiens, UniProt Q13761, residues 53-186)
Chain of UniProt Q13761 (53-186, looked up): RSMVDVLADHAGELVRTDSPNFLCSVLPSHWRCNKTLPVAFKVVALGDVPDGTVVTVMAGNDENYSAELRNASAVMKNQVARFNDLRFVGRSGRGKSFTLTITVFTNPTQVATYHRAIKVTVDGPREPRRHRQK
Notes: whole hairpin DNA, median over replicate spots
Sequence	median fluorescence
GAGGCCCGTTGTGGTTGGCCTCCTGGCCAACCACAACGGGCCTCACACTC (5mC at 7)	5630 a.u.
GAGGCCTGTCGCGGTTGGCCTCCTGGCCAACCGCGACAGGCCTCACACTC (5mC at 32 34)	5000 a.u.
GAGGCCCAACCGCCACAGCCTCCTGGCTGTGGCGGTTGGGCCTCACACTC (5mC at 14)	6250 a.u.
CTCAGTTCTGTGGGCCGGACTCCTGTCCGGCCCACAGAACTGAGACACTC (5mC at 16)	4500 a.u.
GAGGCCTGTTTCGGTTGGCCTCCTGGCCAACCGAAACAGGCCTCACACTC	4370 a.u.
GAGGCCTGCGGTGGTTGGCCTCCTGGCCAACCACCGCAGGCCTCACACTC (5mC at 35)	5720 a.u.
CTCAGTTCTCGGGGCTGGACTCCTGTCCAGCCCCGAGAACTGAGACACTC (5mC at 34)	4180 a.u.
GAGGCCCAACCGCAACGGCCTCCTGGCCGTTGCGGTTGGGCCTCACACTC (5mC at 28)	8730 a.u.
GAGGCCCAACGGCAACAGCCTCCTGGCTGTTGCCGTTGGGCCTCACACTC (5mC at 10 34)	4780 a.u.
GAGGCCTGTCGCGGTTTGCCTCCTGGCAAACCGCGACAGGCCTCACACTC	6380 a.u.
GAGGCCTGCTGCGGTTGGCCTCCTGGCCAACCGCAGCAGGCCTCACACTC (5mC at 9)	8100 a.u.
GAGGCCTGCTGTGGTTGGCCTCCTGGCCAACCACAGCAGGCCTCACACTC (5mC at 9)	5090 a.u.
GAGGCCTGTCGCGGCGGGCCTCCTGGCCCGCCGCGACAGGCCTCACACTC (5mC at 15 29)	5970 a.u.
GAGGCCTGTTGTTGTTGGCCTCCTGGCCAACAACAACAGGCCTCACACTC	4100 a.u.

Set 2 — method: RNAcompete; form: RNA; medium: in vitro; tested at: 20 nM; notes: 7-mer, probes averaged, single round; reference: mean of 7-mers; direction: higher = stronger binding
Target: PABPC1L2, full length, GST fusion (mouse, UniProt A0ABA7IW68)
Construct (chain): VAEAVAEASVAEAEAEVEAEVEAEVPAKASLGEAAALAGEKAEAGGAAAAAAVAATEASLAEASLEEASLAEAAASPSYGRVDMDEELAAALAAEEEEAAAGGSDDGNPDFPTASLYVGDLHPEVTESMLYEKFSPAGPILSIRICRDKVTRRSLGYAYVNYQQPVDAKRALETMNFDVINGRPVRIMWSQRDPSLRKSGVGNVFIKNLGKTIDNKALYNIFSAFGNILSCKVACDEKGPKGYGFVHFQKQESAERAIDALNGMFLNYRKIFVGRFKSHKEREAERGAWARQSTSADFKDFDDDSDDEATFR
Sequence	7-mer Z-score
GUUCGAU	-0.373
AAUUGUU	-0.144
CGAUGAG	-0.0645
AGAAUCC	-0.296
GCUCGUG	-0.394
AAGAGCU	0.613
GCGAGAC	0.206
UGAGCUG	-0.0989
AAAUUUA	1.59
GCUCACG	-0.322
CCUGGUG	-0.255
GGUACAG	0.0279
CAGUCCA	-0.217
GGUAGCC	-0.11
AUGCUUA	-0.0826
GUUUGGG	-0.409
AAUUUCU	-0.269
GAUGCCA	-0.133
GCUACUU	-0.2
UGACUUC	-0.333
UGUUUAG	-0.403
AACGUAA	0.209
CACACCC	-0.277
CUUAAAU	0.331
CCUCUAG	-0.238

Set 3 — method: RNA Bind-n-Seq; form: RNA; medium: in vitro; tested at: 200 nM; notes: whole 134-nt RNA, ends assumed; together with: 150 mM LiCl; reference: input library; direction: higher = stronger binding; all molecules: 7-deaza-guanosine replaces G
Target: Fragile X messenger ribonucleoprotein 1, C-terminal low-complexity region (Fmr1, Mus musculus, UniProt P35922)
Shared flanks, not repeated: GGGAGUUCUACAGUCCGACGAUC … UGGAAUUCUCGGGUGUCAAGG
Sequence	log2 enrichment
UGGGAGGUGGAUUUAGUUUAUUUUUUUAGCUCAUUUCCAGGGGUGGGAAUUUUUUUUUAAUAUGUGUCAUGAAUAAAGUUGUUUUUGAAA	-0.341
CUCAAGUCCUGUGCUACACAUCGUAUGUACCGAAUCGGAAAGGAAAAAGGAGGAAAGUAUUAUGUUACGCCGUUCGGAUCUGCACUUCCA	-0.717
GCAGGAAGUAAAAACAAAUGGAAAUGCUUCGGAUAGUGGCAGGGGUGGGGGUUGCUAAGGAAAGGGUGGGAUAAAAGUGGGUAAAGAGUU	1.82
UCAAGUCCUGUGCUACACAUCGUAUGUACCGAAUCGGAAGGGGAAGGGGAAGGGAAAGUAUUAUGUUACGCCGUUCGGAUCUGCACUUCC	-0.488
AGUCCUGUGCUACACAUCGUAUGUACCGAAUCGGGGAGGGGUUUUUUUGGGGUGGGGAAAGUAUUAUGUUACGCCGUUCGGAUCUGCACU	0.273
CUGUGCUACACAUCGUAUGUACCGAAUCGGGCCCCCCCGGGCCCCCCCGGGCCCCCCCGGGAAAGUAUUAUGUUACGCCGUUCGGAUCUG	-0.294
UAACUUUAGAGGAGGAUCUGAUGGAUAUGGCAGUGGAAGUGGAUUUGGGGAUGGCUAUAAUGGGUAUGGAGGAGGACCUGGAGGUGGCAA	0.426
UCCUGUGCUACACAUCGUAUGUACCGAAUCAAACCCAAACCCCCCCAAAUUUUUUUAAAAAAGUAUUAUGUUACGCCGUUCGGAUCUGCA	1.46
UCCUGUGCUACACAUCGUAUGUACCGAAUCGGGGUGGGGUUUUUUUGGGGAAAAAGGGGAAAGUAUUAUGUUACGCCGUUCGGAUCUGCA	-1.28
AGUCCUGUGCUACACAUCGUAUGUACCGAAUCAAAUUUAAACCCCCAAAUUUUUAAAAAAGUAUUAUGUUACGCCGUUCGGAUCUGCACU	-0.232
UGUGAGACUGAAGAUUAUGGAGAAAAGUUUGAUGAAAAUGAUGUGAUUACAUGUUUUGCUGUAAGUUAAAGCUAACUUUCUAUGUAUAAA	-2.03

Set 4 — target: CCNB2, cyclin fold, Cln2 fusion (human); method: yeast growth competition, sequencing; medium: yeast; notes: weak parent motif; reference: not given; direction: higher = stronger binding
Starting sequence: ITGB3BP docking peptide (human); MPVKRSLKLDGLL; partner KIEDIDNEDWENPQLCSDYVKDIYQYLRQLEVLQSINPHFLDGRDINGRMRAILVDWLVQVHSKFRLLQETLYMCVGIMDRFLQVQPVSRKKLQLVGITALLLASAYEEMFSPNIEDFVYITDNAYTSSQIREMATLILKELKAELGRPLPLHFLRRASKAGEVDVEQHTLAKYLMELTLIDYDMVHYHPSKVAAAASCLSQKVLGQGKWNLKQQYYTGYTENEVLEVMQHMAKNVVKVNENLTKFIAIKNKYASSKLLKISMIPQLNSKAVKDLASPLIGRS
Substitution	normalised enrichment score
MPVKKSLKLDGLL [R5K]	0.0482
MPVKRSLKADGLL [L9A]	0.264
MPVKASAKLDGLL [R5A L7A]	0.405
MPVKRSLKLDGLA [L13A]	0.111
MPVKRALKLDGLL [S6A]	0.37
MPVKRSLKLDALL [G11A]	0.493
MPVKRSLKLAGLL [D10A]	0.0197
MAVKRSLKLDGLL [P2A]	0.569
MPVKRSLKFDGLL [L9F]	0.305

Set 5 — method: RNA Bind-n-Seq; form: RNA; medium: in vitro; tested at: 365 nM; reference: no-protein control; direction: higher = stronger binding
Target: RNA binding protein fox-1 homolog 2, RRM domain, GST-SBP tag (RBFOX2, Homo sapiens, UniProt O43251-10, residues 100-194)
Notes: natural RNA segment, single round, ends assumed
Shared flanks, not repeated: GGGAGUUCUACAGUCCGACGAUC … UGGAAUUCUCGGGUGCCAA
Residues (chain): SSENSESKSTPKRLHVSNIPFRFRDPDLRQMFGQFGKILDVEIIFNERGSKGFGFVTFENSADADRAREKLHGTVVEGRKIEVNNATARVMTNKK
Sequence	RBNS enrichment (R)
ACUGGCCAUCAGAGAAAUGCAAAUCAAAACCACUAUGAGAUAUCAUCUCACACCAGUUAGAAUGGCAAUCAUUAAAAAGUCAGGAAACAACAGGUGCUGGAGAGGAUGUG	0.333
UUUAUUUAUUUGUGUUUAUAUAUGUCAAUUGGUUUCCUUUCUUAGCUUGAUAUUGCCUAGCUUUGUUGUUUUAAUUAACUUUCUAUUAGAGAGACUGUAUAUAUUUUUUC	2.71
UGACCCAUCCUGAGGCCAGAUACAUACUUUAAAAUUCAGAUAUUCACCGUAGCAGGUAGACAGAUGGAGGAUGGCUGGGGAAGGGAGUUGUGGGCUGAAGUUUAGGGGAC	1.13
UUCGCUGUGGCCCUCGGGGUCAGACUGUUCAUUCUCCAGCAUGAUUGUGCCUUUUAAUUAGAGGUCUAGAAAGUUCACCUGAACCCACACCCCCUUCUUCCUGAGAAUUC	8.29
UGUUAUUUUUAAAAUGAAUAAUUGAUUUCUUGAUAGGUGUUUAAUAUUUCUUCCCUCACUGCUGAUUCUUAGAUAGAAACCAUUCUUUAUAUUUGAUAGACUGCUUUCAG	0.723
UUAUUCAGAAUUGUUUUGGUGAUACCUCACCCCUGUAAUCCCAGCACUUUGGGUGGGUGAGGCAGGCGGAUCACUUGAAGCCAGGACUUCAAGACCAGCUUGGCCAACAU	0.641
GGAGGAUAAGAGUGUUCUUUCUUGAAAGCCGGGACUUCCCCUCAAGAACCUGGGCCUGGGGCCGGGACUCUGCAUGACUGGGAGCAAGUCACUUAAACCUCCUGUGCCUC	11.8
CUGCUGAGGACAGCCAGAAGCCCACACUGCCCUCUCACUUGGGUCCAGUUCUUGAUAGUUGGGGGCAGAGCCCCCACACUCCCUUAUACUUCCUGACUGUGCCAGGGCUU	0.304
UACAGCAGACUGUAGUACCUCACAGCCCACUUGAGCCCUGGCUUCUCUCAGCAUCACAGAUGAAACUUAGCUUGAAUGGGUCAAUUCCACCUGUUUUUCUGUGCUCCAGC	0.875
UCCAGGGCUUUUUCUACUUCAUCACAAGGAAUGUUUUGAAAGUGUCUGCUUUUUUUAUCCUUAAAAUUCACCUGUCAGGGAGGCAUUAAAAAUUUGGAAAUGUAUGCCAG	0.78
UUUAUUUUACACCACCUUAAAAAUUAUAUGAGAACAAGGUACAUGCAUUAUGUGUCACAUUACUGGGCAAACUGUUCAAAUAUUUUUUUUAAACCUCCCUGUAUAGAAAA	0.816
AAGGUCCACGCGAGCUAUCCCCGUGGCGUUACGAAUGCAGCCAGCGCCCGGCGUUUGUGCAGGGGUGUCGGGAACGAACGCAGCCAGCGGGCAUCUGUGCGUGCGAGGAG	0.512

A few entries again (set 2):
Sequence	7-mer Z-score
CACACCC	-0.277
UGAGCUG	-0.0989
GAUGCCA	-0.133
AUGCUUA	-0.0826
CCUCUAG	-0.238
CGAUGAG	-0.0645
